Published values gathered from unrelated publications.
Lines come from different studies, so protocols differ. Numbers after ± are the reported error.
lecA: PA-I galactophilic lectin (lecA, Pseudomonas aeruginosa, UniProt Q05097)
lasR: Transcriptional activator protein LasR (lasR, Pseudomonas aeruginosa, UniProt P25084)
KLRK1 with ULBP6: NKG2-D type II integral membrane protein, with ULBP6 (KLRK1, Homo sapiens, UniProt P26718)

Structure (SMILES) | target | assay | test system | setting | how to read | quantity | value
O=C(O)COc1ccc(Cl)cc1 | Chloride channel protein (Torpedo marmorata, UniProt P21564, C212S/E166C/K519E) | macroscopic current block, inhibitor, inside-out patch clamp | HEK293 | -160 mV |  | koff | 9.5 s⁻¹
CC[C@H](C)[C@@H]1NC(=O)[C@H](CC(C)C)NC(=O)[C@H](C)NC(=O)[C@H](CCCNC(=N)N)NC(=O)[C@H](CC(C)C)NC(=O)[C@H]([C@@H](C)O)NC(=O)[C@H](CCCNC(=N)N)NC(=O)[C@@H]2CCCN2C(=O)[C@H](Cc2c[nH]cn2)NC(=O)[C@H](CC(C)C)NC(=O)[C@H]([C@@H](C)CC)NC(=O)[C@H]([C@@H](C)CC)NC(=O)[C@H](Cc2ccccc2)NC(=O)[C@H](Cc2ccc(O)cc2)NC(=O)CSC[C@@H](C(=O)NCC(N)=O)NC(=O)[C@H]([C@@H](C)CC)NC(=O)[C@H](C(C)C)NC1=O | NNMT (Homo sapiens, UniProt P40261) | inhibitor |  | increasing inhibitor concentration, added: nicotinamide 200 µM |  | Km of SAM | no effect
O=[N+]([O-])c1c(Br)c(Cl)c2cccnc2c1O | blaNDM-1 (Klebsiella pneumoniae, UniProt C7C422) | binding, microscale thermophoresis |  |  | reference: compound over nitroxoline | affinity ratio | ~10
CCOC(=O)/C=C/[C@H](C[C@@H]1CCNC1=O)NC(=O)[C@H](Cc1ccccc1)NC(=O)[C@H](COC(C)(C)C)NC(=O)OCc1ccccc1 | Genome polyprotein, 3C protease (Human parechovirus 1, UniProt Q66578) | protease activity, cell-based reporter | human parechovirus |  |  | FLuc reporter expression | no effect
Cc1cc(-c2ccc3c(c2)CCC3O)cc(C)c1O (stereo not drawn) | estrogen receptor alpha ligand-binding domain, human | TR-FRET |  | concentration not given |  | SRC3 coactivator binding | no binding
CC(C)P(=S)(NP(=[Se])(C(C)C)C(C)C)C(C)C | Alpha-amylase (Bacillus subtilis, UniProt P00691) | fluorescence quenching |  | concentration not given, pH 6.8, 304 K |  | ΔG of binding | -4.23 kcal/mol
CC[C@H](C)[C@H](NC(=O)[C@H](Cc1c[nH]cn1)NC(=O)[C@H](CCCCNC(=O)[C@@H](NC(=O)[C@H](CCCCN)NC(=O)CSC[C@H](NC(=O)[C@H](Cc1ccccc1)NC(=O)[C@H](CCCCNC(=O)[C@H](CC(C)C)NC(=O)[C@@H]1CCCN1C(=O)[C@H](CCCCN)NC(=O)c1ccc(O[C@@H]2O[C@H](CO)[C@H](O)[C@H](O)[C@H]2O)cc1)NC(=O)[C@H](CC(C)C)NC(=O)[C@@H]1CCCN1C(=O)[C@H](CCCCN)NC(=O)C[C@@H]1O[C@@H](C)[C@@H](O)[C@@H](O)[C@@H]1O)C(N)=O)[C@@H](C)CC)NC(=O)[C@@H](NC(=O)[C@H](CCCCN)NC(=O)CSC[C@H](NC(=O)[C@H](Cc1ccccc1)NC(=O)[C@H](CCCCNC(=O)[C@H](CC(C)C)NC(=O)[C@@H]1CCCN1C(=O)[C@H](CCCCN)NC(=O)c1ccc(O[C@@H]2O[C@H](CO)[C@H](O)[C@H](O)[C@H]2O)cc1)NC(=O)[C@H](CC(C)C)NC(=O)[C@@H]1CCCN1C(=O)[C@H](CCCCN)NC(=O)C[C@@H]1O[C@@H](C)[C@@H](O)[C@@H](O)[C@@H]1O)C(N)=O)[C@@H](C)CC)C(N)=O | lecA | binding, isothermal titration calorimetry |  | divided by galactoside copies | reference: monovalent galactoside KD over ligand KD | relative potency per galactoside | 20
CC(C)C[C@@H]1NC(=O)[C@H](Cc2ccc(O)cc2)NC(=O)[C@H](CC(N)=O)NC(=O)[C@H](CO)NC(=O)[C@@H](NC(=O)[C@@H]2CCCN2C(=O)[C@H](CC(N)=O)NC(=O)[C@H](Cc2ccc(O)cc2)NC(=O)[C@@H](N)CCCCN)CSC1=O | Accessory gene regulator protein C (Staphylococcus epidermidis, UniProt Q5HMY3) | agr signalling |  | 100 nM |  | activity | inhibited
O=c1oc2cc(O)c(O)cc2c2oc3cc4c(cc3c12)OCO4 | Genome polyprotein, NS5B polymerase (Hepatitis C virus genotype 1b, UniProt P26663) | RNA polymerase activity, uncompetitive inhibitor |  | added: poly rA/U12 varied, UTP 25 µM |  | Ki | 342 µM
c1ccc(CCCC2CCC(CCCc3ccccc3)N2)cc1 (stereo not drawn) | Slc18a2 (Rattus norvegicus, UniProt Q01827) | dopamine uptake | rat striatal synaptic vesicles | added: [3H]dopamine |  | maximal inhibition | 100%
CCOc1cncc(-c2ccc(NC(=O)C3(c4ccnc(NS(=O)(=O)C5CC5)n4)CCOCC3)nc2)n1 | Ctps1 (Mus musculus, UniProt P70698) | enzyme activity | mouse |  | reference: CTPS2 over target IC50 | selectivity ratio | 140
C[C@]1(COC(=O)c2ccc(O)c(O)c2)[C@H](C(=O)O)N2C(=O)/C(=C/c3ccccn3)[C@H]2S1(=O)=O | Beta-lactamase (ampC, Pseudomonas aeruginosa, UniProt P24735) | enzyme activity, inhibitor, absorbance |  |  |  | kinact/KI | 2.9e+06 M⁻¹ s⁻¹
CCCCCc1cn(CC(=O)N[C@H]2CCOC2=O)nn1 | lasR | reporter gene, agonist | Escherichia coli, DH5α pJN105L/pSC11 | 100 µM | reference: OdDHL at same concentration | activation | 17%
NCc1cc(C(F)(F)F)cc(C(F)(F)F)c1 | Amyloid-beta precursor protein, amyloid-beta 1-40 oligomers (APP, Homo sapiens, UniProt P05067) | binding, STD NMR |  | highest STD |  | STD NMR signal | 8.13%
C[C@@]1(O)CC[C@H]2[C@H](CC[C@@H]3[C@@H]2CC[C@]2(C)[C@@H](C(=O)Cn4cccn4)CC[C@@H]32)C1 | Membrane progesterone receptor epsilon (Paqr9, Mus musculus, UniProt Q6TCG2) | pPKA/PKA immunoblot | MDA-MB-231 expressing Paqr9-GFP | 10 nM, 20 min | reference: control | PKA activation | 95.5 ± 9.52%
Cn1cc(-c2cccc(CN3CCC4(CC3)COc3c4ccc4c3CN([C@H]3CCC(=O)NC3=O)C4=O)c2)cn1 | Ikzf2/Crbn (Mus musculus, UniProt P81183+Q8C7D2, I391V) |  | mouse Crbn I391V, spleen | oral, 30 mg/kg single dose, 6 h |  | degradation | 84%
O=[N+]([O-])c1ccc(OP(=O)(O)O)cc1 | Alkaline phosphatase PafA (pafA, Elizabethkingia meningoseptica, UniProt Q9KJX5, K162A) |  | Chryseobacterium meningosepticum | pH 8.0 | reference: wild type over mutant kcat/KM | relative catalytic efficiency | 12000
CN(C)C(=O)[C@@H](NC(=O)c1ccccc1-c1ccc(C(F)(F)F)cc1)c1cccc(C(F)(F)F)c1 | KLRK1 with ULBP6 | cellular TR-FRET ligand displacement |  |  |  | lipophilic ligand efficiency | 2.7 ± 1.1
CC(=O)NC(Cc1ccc(Br)c(Cl)c1)C(=O)N[C@@H](C)C(=O)N1CCC[C@H]1C(=O)N1CCC[C@H]1C(=O)N[C@@H](CCC(=O)O)C(=O)N[C@@H](Cc1c[nH]cn1)C(=O)N[C@@H](CO)C(=O)N[C@H](C(=O)N[C@@H](C)C(N)=O)[C@@H](C)OP(=O)(O)O (stereo partly drawn) | NEK1 (Homo sapiens, UniProt Q96PY6) | enzyme activity, inhibitor |  | 10 µM |  | inhibition | 4.42%
N=C(N)NCCC[C@H](NC(=O)[C@H](CCCNC(=N)N)NC(=O)[C@H](CCCNC(=N)N)NC(=O)[C@@H]1CCCN1C(=O)CNCCCN(CC[C@H](N)C(=O)O)C[C@H]1O[C@@H](n2cnc3c(N)ncnc32)[C@H](O)[C@@H]1O)C(=O)N[C@@H](CO)C(=O)O | N-terminal Xaa-Pro-Lys N-methyltransferase 1 (Homo sapiens, UniProt Q9BV86) | enzyme activity, inhibitor, MALDI-MS |  | 5 µM, 20 min, added: RCC1-10 peptide |  | trimethylation | inhibited
Nc1c2c([n+](CCCCCCCCCC[n+]3c4c(c(N)c5ccccc53)CCC4)c3ccccc13)CCC2 | 2F5 Fab | SPR |  | concentration not given |  | binding | no binding
O=C(Cn1cc(-c2cccc(-c3cn(CC(=O)N[C@H]4CCOC4=O)nn3)c2)nn1)N[C@H]1CCOC1=O | lasR | reporter gene, agonist | Escherichia coli, DH5α pJN105L/pSC11 | 100 µM | reference: OdDHL at same concentration | activation | 8%
C=C(CC)C(=O)c1ccc(OCC(=O)NCCNC(=O)COc2ccc(C(=O)C(=C)CC)c(Cl)c2Cl)c(Cl)c1Cl | Glutathione S-transferase Mu 2 (Homo sapiens, UniProt P28161) | enzyme activity, inhibitor |  | no preincubation | reference: GSTA IC50 over GSTM IC50 | selectivity ratio | ~15 fold
CC[C@H](C)[C@H](NC(C)=O)C(=O)N[C@H]1CSSC[C@@H](C(=O)N[C@H](C(N)=O)[C@@H](C)O)NC(=O)[C@H](CCCNC(=N)N)NC(=O)[C@H](Cc2c[nH]cn2)NC(=O)[C@H](C)NC(=O)CNC(=O)[C@H](Cc2c[nH]c3ccccc23)NC(=O)[C@H](CC(=O)O)NC(=O)[C@H](CCC(N)=O)NC(=O)[C@H](Cc2cc3cccc4ccc5cccc2c5c43)NC(=O)[C@H](C(C)C)NC1=O | Complement C3, C3b fragment (Homo sapiens, UniProt P01024) |  |  | pH 7.4 |  | koff | 0.048 ± 0.012 s⁻¹
Cc1cc([C@H](NC(=O)c2cnccc2-c2ccc(C(F)(F)F)cc2)C(=O)N(C)C)cc(C(F)(F)F)c1 | KLRK1 with ULBP6 | ligand binding, inhibitor, TR-FRET | HEK293 expressing NKG2D and DAP10 | added: ULBP6-AF647 | reference: positive control | maximum inhibition | 103%
CC[C@H](C)[C@H](NC(=O)[C@H](Cc1c[nH]cn1)NC(=O)[C@H](CCCCNC(=O)[C@@H](NC(=O)[C@H](CCCCN)NC(=O)[C@H](Cc1ccccc1)NC(=O)[C@H](CCCCNC(=O)[C@H](CC(C)C)NC(=O)[C@@H]1CCCN1C(=O)[C@H](CCCCN)NC(=O)c1ccc(O[C@@H]2O[C@H](CO)[C@H](O)[C@H](O)[C@H]2O)cc1)NC(=O)[C@H](CC(C)C)NC(=O)[C@@H]1CCCN1C(=O)[C@H](CCCCN)NC(=O)c1ccc(O[C@@H]2O[C@H](CO)[C@H](O)[C@H](O)[C@H]2O)cc1)[C@@H](C)CC)NC(=O)[C@@H](NC(=O)[C@H](CCCCN)NC(=O)[C@H](Cc1ccccc1)NC(=O)[C@H](CCCCNC(=O)[C@H](CC(C)C)NC(=O)[C@@H]1CCCN1C(=O)[C@H](CCCCN)NC(=O)c1ccc(O[C@@H]2O[C@H](CO)[C@H](O)[C@H](O)[C@H]2O)cc1)NC(=O)[C@H](CC(C)C)NC(=O)[C@@H]1CCCN1C(=O)[C@H](CCCCN)NC(=O)c1ccc(O[C@@H]2O[C@H](CO)[C@H](O)[C@H](O)[C@H]2O)cc1)[C@@H](C)CC)C(N)=O | lecA | ITC |  | concentration not given, pH 7.5, 25 °C |  | binding stoichiometry | 4.2 ± 0.6
Nc1nc(Cl)nc2c1ncn2Cc1cc(OCC(F)F)cc(OC(F)F)c1 | PDE4D (Homo sapiens, UniProt Q08499) |  |  |  | reference: PDE8A1 IC50 over PDE4D2 IC50 | selectivity ratio | 499 fold
CN(C)C(=O)[C@@H](NC(=O)c1cc(-c2ccnn2C)ccc1-c1ccc(C(F)(F)F)cc1)c1cccc(C(F)(F)F)c1 | NKG2-D type II integral membrane protein, with MICA (KLRK1, Homo sapiens, UniProt P26718) | cellular TR-FRET binding |  | pIC50 minus ChromLogD |  | lipophilic ligand efficiency | 2.9
CCCCC/C=C\C/C=C\C/C=C\C/C=C\CCCC(=O)NC(CO)C(=O)O (stereo in doubt) | Voltage-gated potassium channel, KQT; KCNQ2(Kv7.2)/KCNQ3(Kv7.3) (KCNQ3/KCNQ2, Homo sapiens, UniProt O43525+O43526) | two-electrode voltage clamp | Xenopus oocytes | 10 µM, at -100 mV, 100 mM K+ | reference: compound over control | deactivation time constant ratio | 1.45 ± 0.11
CCN(Cc1ccccc1)C(=O)CCc1nc(CN2CCN(C(=O)Cc3ccc(OC)c(OC)c3)CC2)no1 | SCN9A (Homo sapiens, UniProt Q15858) | sodium current, whole-cell patch clamp | HEK293, stable | 10 µM |  | inactivation V1/2 | -75.4 mV

Excerpt of the above:
Structure (SMILES) | target | assay | test system | setting | how to read | quantity | value
CN(C)C(=O)[C@@H](NC(=O)c1ccccc1-c1ccc(C(F)(F)F)cc1)c1cccc(C(F)(F)F)c1 | KLRK1 with ULBP6 | cellular TR-FRET ligand displacement |  |  |  | lipophilic ligand efficiency | 2.7 ± 1.1
CC(=O)NC(Cc1ccc(Br)c(Cl)c1)C(=O)N[C@@H](C)C(=O)N1CCC[C@H]1C(=O)N1CCC[C@H]1C(=O)N[C@@H](CCC(=O)O)C(=O)N[C@@H](Cc1c[nH]cn1)C(=O)N[C@@H](CO)C(=O)N[C@H](C(=O)N[C@@H](C)C(N)=O)[C@@H](C)OP(=O)(O)O (stereo partly drawn) | NEK1 (Homo sapiens, UniProt Q96PY6) | enzyme activity, inhibitor |  | 10 µM |  | inhibition | 4.42%
